Results gathered from unrelated publications.
Parts stem from different laboratories: compare values within a part only.
UniProt P42336, sequence (whole entry, unmodified, looked up): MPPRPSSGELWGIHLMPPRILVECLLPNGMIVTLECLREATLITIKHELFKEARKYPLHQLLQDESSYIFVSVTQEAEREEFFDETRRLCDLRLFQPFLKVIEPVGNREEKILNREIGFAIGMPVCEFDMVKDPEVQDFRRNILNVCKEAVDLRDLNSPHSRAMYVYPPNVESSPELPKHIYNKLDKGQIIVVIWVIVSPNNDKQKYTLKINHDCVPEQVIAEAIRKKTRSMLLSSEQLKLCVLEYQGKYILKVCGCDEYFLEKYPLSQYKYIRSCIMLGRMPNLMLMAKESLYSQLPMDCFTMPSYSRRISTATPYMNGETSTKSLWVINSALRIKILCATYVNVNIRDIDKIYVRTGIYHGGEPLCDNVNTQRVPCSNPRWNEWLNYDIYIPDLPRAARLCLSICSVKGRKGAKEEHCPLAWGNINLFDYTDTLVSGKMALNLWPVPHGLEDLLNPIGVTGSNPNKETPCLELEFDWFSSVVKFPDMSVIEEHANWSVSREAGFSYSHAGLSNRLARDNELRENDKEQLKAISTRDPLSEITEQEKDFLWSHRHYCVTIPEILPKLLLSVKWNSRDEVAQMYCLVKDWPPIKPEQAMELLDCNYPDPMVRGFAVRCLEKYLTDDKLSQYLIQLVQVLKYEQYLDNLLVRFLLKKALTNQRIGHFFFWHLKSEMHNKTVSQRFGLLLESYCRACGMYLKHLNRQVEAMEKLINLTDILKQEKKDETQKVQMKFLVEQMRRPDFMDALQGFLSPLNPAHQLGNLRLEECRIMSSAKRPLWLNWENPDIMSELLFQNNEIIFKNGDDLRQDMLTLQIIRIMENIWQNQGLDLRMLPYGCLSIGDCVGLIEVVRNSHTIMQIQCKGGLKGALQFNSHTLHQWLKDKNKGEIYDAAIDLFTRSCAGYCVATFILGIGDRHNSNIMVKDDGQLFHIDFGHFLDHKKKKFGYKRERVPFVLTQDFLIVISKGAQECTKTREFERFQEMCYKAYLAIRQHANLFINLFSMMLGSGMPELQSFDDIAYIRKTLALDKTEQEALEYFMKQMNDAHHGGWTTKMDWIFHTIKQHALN
UniProt Q96NX5, sequence (whole entry, looked up): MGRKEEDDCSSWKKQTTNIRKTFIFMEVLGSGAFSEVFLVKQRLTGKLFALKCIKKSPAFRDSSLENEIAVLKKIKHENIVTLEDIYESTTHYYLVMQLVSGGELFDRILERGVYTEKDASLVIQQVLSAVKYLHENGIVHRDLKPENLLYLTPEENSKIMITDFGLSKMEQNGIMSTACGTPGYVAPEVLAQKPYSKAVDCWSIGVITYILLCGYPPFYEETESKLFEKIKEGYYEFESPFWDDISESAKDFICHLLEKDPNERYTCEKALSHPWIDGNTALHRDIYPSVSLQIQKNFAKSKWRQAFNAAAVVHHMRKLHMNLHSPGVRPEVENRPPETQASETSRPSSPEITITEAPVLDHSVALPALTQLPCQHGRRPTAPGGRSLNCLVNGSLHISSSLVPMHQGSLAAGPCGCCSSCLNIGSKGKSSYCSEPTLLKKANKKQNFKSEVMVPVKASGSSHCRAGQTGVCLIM
UniProt Q9H2G2, sequence (whole entry, looked up): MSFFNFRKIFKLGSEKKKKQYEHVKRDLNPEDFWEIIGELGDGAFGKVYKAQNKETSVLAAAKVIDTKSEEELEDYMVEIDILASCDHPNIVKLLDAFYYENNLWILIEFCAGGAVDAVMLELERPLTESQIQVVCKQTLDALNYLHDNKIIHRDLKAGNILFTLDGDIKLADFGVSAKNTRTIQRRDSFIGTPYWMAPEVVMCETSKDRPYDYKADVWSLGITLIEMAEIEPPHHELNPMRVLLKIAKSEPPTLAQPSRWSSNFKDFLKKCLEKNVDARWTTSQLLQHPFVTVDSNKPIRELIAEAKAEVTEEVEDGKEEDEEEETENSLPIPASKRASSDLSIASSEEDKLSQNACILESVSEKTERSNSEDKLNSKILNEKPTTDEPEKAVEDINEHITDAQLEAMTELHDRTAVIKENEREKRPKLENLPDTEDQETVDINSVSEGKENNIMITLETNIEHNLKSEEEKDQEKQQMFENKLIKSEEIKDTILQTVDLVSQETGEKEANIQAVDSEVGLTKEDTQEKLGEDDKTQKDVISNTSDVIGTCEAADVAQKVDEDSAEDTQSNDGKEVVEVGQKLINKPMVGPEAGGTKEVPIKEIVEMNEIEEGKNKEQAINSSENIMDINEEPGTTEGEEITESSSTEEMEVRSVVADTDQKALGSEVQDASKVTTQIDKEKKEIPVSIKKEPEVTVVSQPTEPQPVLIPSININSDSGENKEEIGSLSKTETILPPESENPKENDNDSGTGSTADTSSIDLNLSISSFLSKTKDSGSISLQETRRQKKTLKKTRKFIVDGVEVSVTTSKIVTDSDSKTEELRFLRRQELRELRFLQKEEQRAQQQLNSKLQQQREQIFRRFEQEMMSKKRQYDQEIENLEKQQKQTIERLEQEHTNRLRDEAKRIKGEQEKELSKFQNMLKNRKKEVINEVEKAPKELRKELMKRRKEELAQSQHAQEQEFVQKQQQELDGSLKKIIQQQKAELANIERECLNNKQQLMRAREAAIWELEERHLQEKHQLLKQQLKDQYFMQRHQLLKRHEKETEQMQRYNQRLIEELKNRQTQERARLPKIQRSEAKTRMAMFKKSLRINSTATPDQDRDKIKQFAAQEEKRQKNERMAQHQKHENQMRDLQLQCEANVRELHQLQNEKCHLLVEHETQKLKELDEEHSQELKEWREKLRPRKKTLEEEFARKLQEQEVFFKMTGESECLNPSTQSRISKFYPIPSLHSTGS
UniProt Q09013, sequence (whole entry, looked up): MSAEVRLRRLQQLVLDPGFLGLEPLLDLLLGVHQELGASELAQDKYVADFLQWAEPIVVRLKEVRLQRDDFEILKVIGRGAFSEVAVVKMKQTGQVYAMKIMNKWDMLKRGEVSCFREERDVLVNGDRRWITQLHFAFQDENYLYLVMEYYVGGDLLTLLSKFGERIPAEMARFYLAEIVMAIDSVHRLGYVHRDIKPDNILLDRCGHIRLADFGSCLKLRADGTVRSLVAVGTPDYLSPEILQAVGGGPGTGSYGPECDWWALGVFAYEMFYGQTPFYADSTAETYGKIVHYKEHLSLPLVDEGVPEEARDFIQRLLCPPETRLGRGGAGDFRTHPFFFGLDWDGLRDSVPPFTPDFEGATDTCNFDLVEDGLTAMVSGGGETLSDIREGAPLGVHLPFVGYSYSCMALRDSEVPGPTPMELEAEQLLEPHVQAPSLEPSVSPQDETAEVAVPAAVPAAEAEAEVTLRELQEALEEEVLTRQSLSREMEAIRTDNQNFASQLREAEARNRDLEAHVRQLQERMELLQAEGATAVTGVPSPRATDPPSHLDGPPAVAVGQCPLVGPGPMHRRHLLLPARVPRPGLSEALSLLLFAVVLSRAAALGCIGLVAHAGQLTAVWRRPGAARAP
UniProt Q8IU85, sequence (whole entry, looked up): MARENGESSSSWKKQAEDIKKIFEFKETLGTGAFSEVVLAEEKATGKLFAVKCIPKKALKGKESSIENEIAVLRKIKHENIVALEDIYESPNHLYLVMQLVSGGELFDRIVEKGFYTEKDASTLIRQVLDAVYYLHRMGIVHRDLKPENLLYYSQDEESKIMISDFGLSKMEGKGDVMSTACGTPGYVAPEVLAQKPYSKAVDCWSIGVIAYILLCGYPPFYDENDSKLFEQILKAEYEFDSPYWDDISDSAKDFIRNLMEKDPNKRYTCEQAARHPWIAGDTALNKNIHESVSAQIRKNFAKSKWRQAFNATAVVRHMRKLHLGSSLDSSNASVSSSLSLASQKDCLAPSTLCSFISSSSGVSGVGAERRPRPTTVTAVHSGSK
UniProt O15075, sequence (whole entry, looked up): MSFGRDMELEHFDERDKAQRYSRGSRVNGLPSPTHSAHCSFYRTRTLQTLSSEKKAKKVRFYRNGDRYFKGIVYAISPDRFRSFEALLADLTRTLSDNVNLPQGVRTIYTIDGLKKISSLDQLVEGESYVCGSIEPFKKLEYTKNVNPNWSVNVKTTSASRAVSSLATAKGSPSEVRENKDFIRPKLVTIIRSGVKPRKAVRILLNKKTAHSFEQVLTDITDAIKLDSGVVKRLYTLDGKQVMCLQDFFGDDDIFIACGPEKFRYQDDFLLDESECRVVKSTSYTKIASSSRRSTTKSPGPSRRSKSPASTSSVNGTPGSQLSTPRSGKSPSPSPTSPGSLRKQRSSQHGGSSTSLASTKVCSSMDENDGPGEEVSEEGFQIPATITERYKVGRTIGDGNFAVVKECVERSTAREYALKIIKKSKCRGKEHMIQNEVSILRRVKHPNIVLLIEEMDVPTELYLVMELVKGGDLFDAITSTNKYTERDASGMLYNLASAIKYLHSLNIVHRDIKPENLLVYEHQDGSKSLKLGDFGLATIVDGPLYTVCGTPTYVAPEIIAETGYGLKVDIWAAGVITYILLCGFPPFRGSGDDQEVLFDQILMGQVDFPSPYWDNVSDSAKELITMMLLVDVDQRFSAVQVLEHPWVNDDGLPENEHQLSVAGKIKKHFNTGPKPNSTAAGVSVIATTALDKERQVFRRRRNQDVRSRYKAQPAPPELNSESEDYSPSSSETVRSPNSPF
UniProt O14842, sequence (whole entry, looked up): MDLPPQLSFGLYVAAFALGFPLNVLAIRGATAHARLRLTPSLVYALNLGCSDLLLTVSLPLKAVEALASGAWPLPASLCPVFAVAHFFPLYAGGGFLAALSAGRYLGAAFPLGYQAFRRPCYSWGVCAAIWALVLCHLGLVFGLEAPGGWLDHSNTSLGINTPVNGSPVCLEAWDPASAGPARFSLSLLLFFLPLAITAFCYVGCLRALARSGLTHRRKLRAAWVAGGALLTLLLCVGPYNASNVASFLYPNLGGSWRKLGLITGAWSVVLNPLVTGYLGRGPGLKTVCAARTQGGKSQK

Set 1
Compound: CC(C)S(=O)(=O)c1ccc2nccc(Nc3ccc4sc(C5CCCC5)nc4c3)c2c1
Effect on: kinase activity
Action: inhibitor
Concentration: 1 µM
target	remaining activity
BLK (Homo sapiens, UniProt P51451)	80.5%
LIM domain kinase 1 (LIMK1, Homo sapiens, UniProt P53667)	82.5%
ACVR1 (Homo sapiens, UniProt Q04771)	112%
PIM1 (Homo sapiens, UniProt P11309)	100%
RPS6KB1 (Homo sapiens, UniProt P23443)	110%
DMPK (Homo sapiens, UniProt Q09013)	80%
MKNK2 (Homo sapiens, UniProt Q9HBH9)	102%
CDK9 (Homo sapiens, UniProt P50750)	100%
TBK1 (Homo sapiens, UniProt Q9UHD2)	106%

Set 2
SMILES: Cc1cc(Nc2nc(-c3ccccc3)nc3ccccc23)n[nH]1
Effect on: enzyme activity
Action: inhibitor
Concentration: 0.5 µM
Reference: control
target	remaining activity
MAPK10 (Homo sapiens, UniProt P53779)	88.7%
Aurora kinase A (AURKA, Homo sapiens, UniProt O14965)	19.8%
DMPK (Homo sapiens, UniProt Q09013)	100%
MAP3K8 (Homo sapiens, UniProt P41279)	105%
ROS1 (Homo sapiens, UniProt P08922)	16.7%
CSNK2A2 (Homo sapiens, UniProt P19784)	15%
ROCK2 (Homo sapiens, UniProt O75116)	87.6%
CAMK1D (Homo sapiens, UniProt Q8IU85)	85.4%
CAMK1G (Homo sapiens, UniProt Q96NX5)	101%
NEK9 (Homo sapiens, UniProt Q8TD19)	79.9%
EGFR (Homo sapiens, UniProt P00533)	97.4%
PRKD1 (Homo sapiens, UniProt Q15139)	77.4%
PTK2B (Homo sapiens, UniProt Q14289)	61.4%
SLK (Homo sapiens, UniProt Q9H2G2)	42.2%
Cyclin-dependent kinase 2, with cyclin A (CDK2, Homo sapiens, UniProt P24941)	96.9%
DYRK4 (Homo sapiens, UniProt Q9NR20)	103%
NTRK3 (Homo sapiens, UniProt Q16288)	2.01%
HIPK3 (Homo sapiens, UniProt Q9H422)	88.5%
MAP3K2 (Homo sapiens, UniProt Q9Y2U5)	78.4%
RET (Homo sapiens, UniProt P07949)	8.76%
PKN2 (Homo sapiens, UniProt Q16513)	87.2%
CDK7 (Homo sapiens, UniProt P50613)	73.3%
GRK5 (Homo sapiens, UniProt P34947)	119%

Set 3
Compound: N=C(N)NC(=O)c1cnn(-c2cccc3ncccc23)c1C1CC1
Effect on: β-arrestin recruitment
Action: agonist
Technique: PRESTO-Tango
Concentration: 10 µM
Reference: untreated
target	fold over basal
ADRA1A (Homo sapiens, UniProt P35348)	1.6
CCR8 (Homo sapiens, UniProt P51685)	1
Putative adhesion G protein-coupled receptor F2P (ADGRF2P, Homo sapiens, UniProt Q8IZF7)	1.39
CRHR2 (Homo sapiens, UniProt Q13324)	1.35
ADRA1B (Homo sapiens, UniProt P35368)	0.98
CCR10 (Homo sapiens, UniProt P46092)	0.7
Metabotropic glycine receptor (GPR158, Homo sapiens, UniProt Q5T848)	1.08
HTR4 (Homo sapiens, UniProt Q13639)	1.5
Relaxin receptor 1 (RXFP1, Homo sapiens, UniProt Q9HBX9)	1.41
G-protein coupled receptor 83 (GPR83, Homo sapiens, UniProt Q9NYM4)	0.89
Probable G-protein coupled receptor 148 (GPR148, Homo sapiens, UniProt Q8TDV2)	1.77
FFAR1 (Homo sapiens, UniProt O14842)	1.04 fold

Set 4
Structure (SMILES): CN(C)C(=O)Cn1cc(-c2nc(C3(c4ccc(-c5cnc(N)nc5)cc4)CC3)no2)cn1
Technique: competition with immobilised ligand
Concentration: 1 µM
target	assay	remaining binding
STK32B (Homo sapiens, UniProt Q9NY57)	cell-free assay	100%
PIP5K1C (Homo sapiens, UniProt O60331)	cell-free assay	96%
TRPM6 (Homo sapiens, UniProt Q9BX84)	cell-free assay	86%
CAMK2G (Homo sapiens, UniProt Q13555)	cell-free assay	98%
PIK3CA (Homo sapiens, UniProt P42336, I800L)	cell-free assay	91%
CAMK1G (Homo sapiens, UniProt Q96NX5)	cell-free assay	100%
PDGFRA (Homo sapiens, UniProt P16234)	cell-free assay	83%
PRKCI (Homo sapiens, UniProt P41743)	cell-free assay	100%
IKBKB (Homo sapiens, UniProt O14920)	cell-free assay	90%
PIK3CA (Homo sapiens, UniProt P42336, M1043I)	cell-free assay	100%
Tyrosine-protein kinase ABL1, non-phosphorylated (ABL1, Homo sapiens, UniProt P00519, F317I)	binding	76%
SLK (Homo sapiens, UniProt Q9H2G2)	cell-free assay	77%
DCLK1 (Homo sapiens, UniProt O15075)	cell-free assay	88%
MAK (Homo sapiens, UniProt P20794)	cell-free assay	87%
EPHA4 (Homo sapiens, UniProt P54764)	cell-free assay	100%

A few entries again (set 3):
target	fold over basal
Probable G-protein coupled receptor 148 (GPR148, Homo sapiens, UniProt Q8TDV2)	1.77
CCR10 (Homo sapiens, UniProt P46092)	0.7
Metabotropic glycine receptor (GPR158, Homo sapiens, UniProt Q5T848)	1.08
HTR4 (Homo sapiens, UniProt Q13639)	1.5
